Assay results pooled from the literature.
Parts stem from different laboratories: compare values within a part only. Positions count from the first letter of the parent shown.
Chain of UniProt P29376 (whole entry, looked up): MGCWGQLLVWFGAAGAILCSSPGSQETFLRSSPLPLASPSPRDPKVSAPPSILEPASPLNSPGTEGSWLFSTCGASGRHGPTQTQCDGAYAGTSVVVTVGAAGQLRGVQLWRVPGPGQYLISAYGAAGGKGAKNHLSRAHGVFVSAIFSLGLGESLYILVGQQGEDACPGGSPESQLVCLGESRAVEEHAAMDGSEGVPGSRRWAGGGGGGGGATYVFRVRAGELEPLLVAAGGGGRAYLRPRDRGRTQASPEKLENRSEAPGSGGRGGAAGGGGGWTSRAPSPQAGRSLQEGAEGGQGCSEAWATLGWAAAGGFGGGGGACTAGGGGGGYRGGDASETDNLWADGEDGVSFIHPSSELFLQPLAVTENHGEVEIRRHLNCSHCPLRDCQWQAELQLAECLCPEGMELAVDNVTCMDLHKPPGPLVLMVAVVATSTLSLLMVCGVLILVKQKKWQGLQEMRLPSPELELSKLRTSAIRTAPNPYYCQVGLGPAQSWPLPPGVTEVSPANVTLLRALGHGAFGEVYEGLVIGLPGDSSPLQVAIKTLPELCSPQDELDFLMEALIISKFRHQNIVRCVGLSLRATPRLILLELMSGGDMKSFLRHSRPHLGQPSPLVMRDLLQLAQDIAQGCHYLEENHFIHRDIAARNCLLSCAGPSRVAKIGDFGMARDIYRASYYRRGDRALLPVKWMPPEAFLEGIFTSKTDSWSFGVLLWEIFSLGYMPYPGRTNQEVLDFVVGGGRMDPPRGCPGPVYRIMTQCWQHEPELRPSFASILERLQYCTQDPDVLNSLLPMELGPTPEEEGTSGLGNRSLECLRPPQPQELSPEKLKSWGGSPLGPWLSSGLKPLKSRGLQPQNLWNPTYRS

Set 1
Target: TAR DNA-binding protein 43, full length, His tag (TARDBP, Homo sapiens, UniProt Q13148, residues 1-414)
Method: RNA Bind-n-Seq
Form: RNA
Medium: in vitro
Tested at: 20 nM
Notes: 6-mer, flanks averaged, single round
With: 150 mM KCl
Reference: input library
Reading: higher = stronger binding
Sequence	6-mer enrichment (R)
UGAACA	0.67
ACAUGC	0.674
GCCAUU	0.664
AGUCGG	1.36
UAGAGA	0.859
ACAUGU	0.666
UUUUCC	0.638
GCUGCG	1.53

Set 2
Target: RING finger protein unkempt homolog, zinc fingers 1-6, GST-SBP tag (UNK, Homo sapiens, UniProt Q9C0B0, residues 30-357)
Chain of UniProt Q9C0B0 (30-357, looked up): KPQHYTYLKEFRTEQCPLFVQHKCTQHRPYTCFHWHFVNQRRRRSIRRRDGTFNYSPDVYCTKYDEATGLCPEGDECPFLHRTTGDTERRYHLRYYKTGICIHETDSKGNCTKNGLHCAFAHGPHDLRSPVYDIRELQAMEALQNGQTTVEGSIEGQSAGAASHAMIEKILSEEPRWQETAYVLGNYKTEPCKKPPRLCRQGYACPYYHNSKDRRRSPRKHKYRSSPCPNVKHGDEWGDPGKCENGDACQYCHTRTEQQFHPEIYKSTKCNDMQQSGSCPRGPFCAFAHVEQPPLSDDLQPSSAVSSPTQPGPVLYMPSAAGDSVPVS
Method: RNA Bind-n-Seq
Form: RNA
Medium: in vitro
Tested at: not given
Notes: RNA with constant flanks, human-mouse chimeric sites, ends assumed
Reference: input RNA pool
Reading: higher = stronger binding
Sequence	bound/input enrichment [ratio]
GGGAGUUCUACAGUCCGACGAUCGCACUUCUCAAAUACUGGCCAAAGACUCACAGUCCAAAAGAAGUAAUGUUCUUAAAUGAAUUAGAAGAAAUUUUAGAUGUCAUUGAACCAUCAGAGUUUGUGAAGAUCAUGGAACCCCUUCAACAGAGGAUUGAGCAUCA	0.6
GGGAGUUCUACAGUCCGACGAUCAGAAUCUGUGACUGGCUUUACUUAAUUGGUCAUUGAUAGCUUAACAAACAUGGAGAUGAGAUUAGAAAUCUUGACAUCAACAGGUAUUAAGCAGAAAAAACCAUGGCCACGUGUCUCCUGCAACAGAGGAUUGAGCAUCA	0.119
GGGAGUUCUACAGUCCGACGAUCGAAUCCUACUCAGGCGGAUUUUGCAACACCAAGCUCACAGCAGCAGCAUCUUAGUCACAGUAGGGUAGUUUUGGGGCUCUGUGGCCAUGGUUUUACUCACAUGCAGGUUUUGAAAAUGUACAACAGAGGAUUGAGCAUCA	0.663
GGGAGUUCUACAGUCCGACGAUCAAAGAGUGGAUAGAAUGUGCACACGGGAUCGGUGGGACCCGGGCGAAAAAGGAGUGCAAGAUAGAGUUCGAUGACUUCGAAGAGUGCUUGCUUCGGUAGAAAACGAUGAGGCGAAUGCAUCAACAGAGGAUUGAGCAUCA	0.471
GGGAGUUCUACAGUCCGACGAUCAGAAUCUUGGGACUGUUUUGCUUGAUUGGUCAUUGGUAGCUUAACAAACAUGGAGAUAAGAUUAGAAAUCUUGACAUCAACAGGUAUUAAGCAGAAAAAACCAUGGCCACGUGUCUCCUGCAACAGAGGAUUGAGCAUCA	0.102
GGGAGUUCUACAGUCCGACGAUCGUGACUGGUGUUAAGAUUUCCCCUCAGCAAAGAAGUGCAGUAGUCACCAUAAUUCCAUCUGUGGUGAGUGCCAGUCAGAUUGUGGAGCUGGUUCCAGACCUCAGUUUAGACAUGGGAACUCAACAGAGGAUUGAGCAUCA	0.159
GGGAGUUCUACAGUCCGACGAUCGUACUGCAGCAGCAGGGAAAACUGCAGGAAGCACUGAUGCAUUAUAAGGAGGCUAUUCGAAUCAGUCCUACCUUUGCUGAUGCUUAUUCUAAUAUGGGAAACACUCUAAAGGAGAUGCAGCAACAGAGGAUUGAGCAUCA	0.338
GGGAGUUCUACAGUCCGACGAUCCAGCUGCGAGGCCGCGGUUUCCCCCUGGGCCUCCCCAGCCGCCGCCAUGGGCAUCAAAUUUUUAGAAGUUAUCAAACCAUUCUGUGCAGUUCUACCAGAAAUUCAGAAACCGGAAAGGAACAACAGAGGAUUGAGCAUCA	0.72

Set 3
Target: CCNF, cyclin fold, Cln2 fusion (human)
Method: yeast growth competition, sequencing
Medium: yeast
Notes: strong parent motif
Reference: not given
Reading: higher = stronger binding
Starting sequence: viral docking peptide; KKVKRRLFETREL
Variant	normalised enrichment score
KKVKRRLFETRAL [E12A]	6.7
KAVKRRLFETREL [K2A]	7.25
KKVKKRLFETREL [R5K]	2.77
KKVKRRLFETAEL [R11A]	7.66
KKVKRRLFATREL [E9A]	6.9
KKVKRRAFETREL [L7A]	2.77
KKAKRRLFETREL [V3A]	5.45
KKVKRALFETREL [R6A]	4.61
KKVKKRLLETREL [R5K F8L]	0.943

Further values, each from its own experiment
SMILES	target	test	conditions	endpoint	result
N#CC(C#N)=C(N)/C(C#N)=C/c1ccc(O)cc1	Leukocyte tyrosine kinase receptor (LTK, Homo sapiens, UniProt P29376)	enzyme activity, inhibitor, radiometric	0.5 µM	remaining activity	92.5%

Excerpt of the above (set 1):
Sequence	6-mer enrichment (R)
AGUCGG	1.36
UAGAGA	0.859
ACAUGU	0.666
UUUUCC	0.638
